Experimental data of several laboratories.
Each line is one published result; not all experiments were run side by side.

For O=C(Nc1ccc(Oc2ccc(Cl)cc2)cc1)c1cc2ccc(Cl)cc2s1, the viability was 79% (C2C12 differentiated myotubes; 10 µM, 72 h).
For CC(C)=C1CC[C@]2(COC(=O)c3ccccc3)[C@@H](OC(=O)c3ccccc3)/C=C(\C)CC[C@@H]3O[C@@]3(C)C[C@@H](OC(=O)c3cccnc3)[C@@H]12, the viability was 91% (HepG2; cell growth or viability, CCK-8; 30 µM, 24 h).
With O=C(c1cc2ccc(Cl)cc2s1)N(c1ccc(OCCN2CCCC2)cc1)c1ccc(OCCN2CCCC2)cc1 the viability was 5% (C2C12 differentiated myotubes; 100 µM, 72 h).
With CC(C)=CCc1c(O)cc(CO)cc1O the viability was 62.4% (HepG2; cell growth or viability, CCK-8; 50 µM, 24 h).
With O=c1[nH]cc(C(c2cccc(Cl)c2)c2c[nH]c(=O)[nH]c2=O)c(=O)[nH]1 the viability was over 90% (Ba/F3; 5 µg/mL, 24 h).
For COc1ccc([C@@H]2CC(=O)c3c(O)cc(O[C@@H]4O[C@H](CO[C@@H]5O[C@@H](C)[C@H](O)[C@@H](O)[C@H]5O)[C@@H](O)[C@H](O)[C@H]4O)cc3O2)cc1O, the viability was 85.8% (MRC5; cell growth or viability, MTS; 50 µg/mL, 48 h).
Under viability, CC(C)=CCN=C(N)NCCC[C@@H](NC(=O)CCCc1ccc(O)cc1)C(=O)N[C@@H](Cc1ccccc1)C(O)CC(=O)N[C@@H](Cc1ccc(O)cc1)C(=O)O (stereo in doubt) is recorded as “no effect” (U-87 MG; alamarBlue; 50 µM, 20 h; reference: DMSO vehicle).
The viability of O=c1[nH]cc(C(c2ccc(Cl)cc2)c2c[nH]c(=O)[nH]c2=O)c(=O)[nH]1 is reported as over 90% (Ba/F3; 1 µg/mL, 24 h).
With CC(C)=CCc1c(O)cc2c(c1O)C(=O)OC2 the viability was 87.3% (HepG2; cell growth or viability, CCK-8; 40 µM, 24 h).
O=c1[nH]cc(C(c2ccccc2Br)c2c[nH]c(=O)[nH]c2=O)c(=O)[nH]1 gave a viability of over 90% (Ba/F3; 1 µg/mL, 24 h).
OCC1CSC(c2ccc(O)cc2O)S1 (stereo not shown) gave a viability of 99.9% (B16-F10; MTT; 5 µM, 24 h; reference: untreated).
The viability of CCN(c1nc(N[C@H](CC(N)=O)C(=O)NC)nc(N2CCN(c3ccccc3C#N)CC2)n1)C1CCCCC1 is reported as over 95% (hBMEC; PrestoBlue; 50 µM, 72 h).
For c1ccc(CN2CCOCCOCCN(CCCCCCCCCCCCCCN3CCOCCOCCN(CCCCCCCCCCCCCCN4CCOCCOCCN(Cc5ccccc5)CCOCCOCC4)CCOCCOCC3)CCOCCOCC2)cc1, the viability was 80 to 100% (human hepatocytes; 1 µM, 72 h).
COc1cc([C@@H]2OC[C@@H]3[C@H]2CO[C@H]3c2cc(OC)c(O)c(OC)c2)cc(OC)c1O gave a viability of 68.6% (HepG2; cell growth or viability, CCK-8; 50 µM, 24 h).
Cc1ccccc1C(c1c[nH]c(=O)[nH]c1=O)c1c[nH]c(=O)[nH]c1=O has a viability of over 90% (Ba/F3; 5 µg/mL, 24 h).
The viability of CC(C)(C)c1ccc2[c](c1)[Au-]1([Cl])[c]3cc(C(C)(C)C)ccc3-c3cncc-2[n+]31 is reported as 72% (HL-60; cell growth or viability, MTS; 1 µM).
The viability of C[C@@H]1O[C@@H](O[C@H]2[C@H](O[C@H]3CC[C@@]4(C)C(CC[C@]5(C)C4CC=C4C6CC(C)(C)CC[C@]6(C(=O)O[C@@H]6O[C@H](CO)[C@@H](O)[C@H](O)[C@H]6O)CC[C@]45C)[C@]3(C)CO)OC[C@H](O)[C@@H]2O)[C@H](O)[C@H](O[C@@H]2OC[C@@H](O)[C@H](O)[C@H]2O)[C@H]1O (stereo partly shown) is reported as 84.5% (HepG2; cell growth or viability, CCK-8; 40 µM, 24 h).
For O=c1[nH]cc(C(c2cccc(C(F)(F)F)c2)c2c[nH]c(=O)[nH]c2=O)c(=O)[nH]1, the viability was over 90% (Ba/F3; 1 µg/mL, 24 h).
C[C@H](N)C(=O)N[C@H]1CSSC[C@@H](C(=O)NCC(=O)O)NC(=O)[C@H](CCC(N)=O)NC(=O)[C@H](Cc2c[nH]cn2)NC(=O)[C@H](CCC(N)=O)NC(=O)[C@H]([C@@H](C)O)NC(=O)[C@H](CO)NC(=O)CNC(=O)[C@H]([C@@H](C)O)NC1=O — result for viability: “not toxic” (human epidermal keratinocytes; MTT; 1 and 10 mg/mL, 30 and 60 min).

Some of these lines once more:
With CC(C)=CCc1c(O)cc2c(c1O)C(=O)OC2 the viability was 87.3% (HepG2; cell growth or viability, CCK-8; 40 µM, 24 h).
The viability of CCN(c1nc(N[C@H](CC(N)=O)C(=O)NC)nc(N2CCN(c3ccccc3C#N)CC2)n1)C1CCCCC1 is reported as over 95% (hBMEC; PrestoBlue; 50 µM, 72 h).
With O=c1[nH]cc(C(c2cccc(Cl)c2)c2c[nH]c(=O)[nH]c2=O)c(=O)[nH]1 the viability was over 90% (Ba/F3; 5 µg/mL, 24 h).
